# Published values collected from several papers.
# Numbered parts are unrelated; each lists some results of a single study.
# Chain of UniProt P49759 (whole entry, looked up): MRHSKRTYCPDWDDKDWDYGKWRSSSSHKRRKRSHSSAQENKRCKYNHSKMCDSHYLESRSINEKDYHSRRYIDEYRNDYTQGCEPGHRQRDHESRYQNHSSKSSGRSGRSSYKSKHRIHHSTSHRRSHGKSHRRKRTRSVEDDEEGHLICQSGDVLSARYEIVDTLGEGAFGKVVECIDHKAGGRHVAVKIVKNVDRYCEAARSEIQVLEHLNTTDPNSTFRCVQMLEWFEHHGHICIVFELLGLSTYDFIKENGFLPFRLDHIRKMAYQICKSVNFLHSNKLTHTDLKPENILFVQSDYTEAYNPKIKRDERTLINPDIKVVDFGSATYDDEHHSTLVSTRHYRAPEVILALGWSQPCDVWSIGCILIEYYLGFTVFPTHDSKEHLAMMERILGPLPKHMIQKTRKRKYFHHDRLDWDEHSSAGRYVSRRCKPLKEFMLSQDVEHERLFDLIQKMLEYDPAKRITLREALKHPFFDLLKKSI
# Chain of UniProt Q5S007 (whole entry, looked up): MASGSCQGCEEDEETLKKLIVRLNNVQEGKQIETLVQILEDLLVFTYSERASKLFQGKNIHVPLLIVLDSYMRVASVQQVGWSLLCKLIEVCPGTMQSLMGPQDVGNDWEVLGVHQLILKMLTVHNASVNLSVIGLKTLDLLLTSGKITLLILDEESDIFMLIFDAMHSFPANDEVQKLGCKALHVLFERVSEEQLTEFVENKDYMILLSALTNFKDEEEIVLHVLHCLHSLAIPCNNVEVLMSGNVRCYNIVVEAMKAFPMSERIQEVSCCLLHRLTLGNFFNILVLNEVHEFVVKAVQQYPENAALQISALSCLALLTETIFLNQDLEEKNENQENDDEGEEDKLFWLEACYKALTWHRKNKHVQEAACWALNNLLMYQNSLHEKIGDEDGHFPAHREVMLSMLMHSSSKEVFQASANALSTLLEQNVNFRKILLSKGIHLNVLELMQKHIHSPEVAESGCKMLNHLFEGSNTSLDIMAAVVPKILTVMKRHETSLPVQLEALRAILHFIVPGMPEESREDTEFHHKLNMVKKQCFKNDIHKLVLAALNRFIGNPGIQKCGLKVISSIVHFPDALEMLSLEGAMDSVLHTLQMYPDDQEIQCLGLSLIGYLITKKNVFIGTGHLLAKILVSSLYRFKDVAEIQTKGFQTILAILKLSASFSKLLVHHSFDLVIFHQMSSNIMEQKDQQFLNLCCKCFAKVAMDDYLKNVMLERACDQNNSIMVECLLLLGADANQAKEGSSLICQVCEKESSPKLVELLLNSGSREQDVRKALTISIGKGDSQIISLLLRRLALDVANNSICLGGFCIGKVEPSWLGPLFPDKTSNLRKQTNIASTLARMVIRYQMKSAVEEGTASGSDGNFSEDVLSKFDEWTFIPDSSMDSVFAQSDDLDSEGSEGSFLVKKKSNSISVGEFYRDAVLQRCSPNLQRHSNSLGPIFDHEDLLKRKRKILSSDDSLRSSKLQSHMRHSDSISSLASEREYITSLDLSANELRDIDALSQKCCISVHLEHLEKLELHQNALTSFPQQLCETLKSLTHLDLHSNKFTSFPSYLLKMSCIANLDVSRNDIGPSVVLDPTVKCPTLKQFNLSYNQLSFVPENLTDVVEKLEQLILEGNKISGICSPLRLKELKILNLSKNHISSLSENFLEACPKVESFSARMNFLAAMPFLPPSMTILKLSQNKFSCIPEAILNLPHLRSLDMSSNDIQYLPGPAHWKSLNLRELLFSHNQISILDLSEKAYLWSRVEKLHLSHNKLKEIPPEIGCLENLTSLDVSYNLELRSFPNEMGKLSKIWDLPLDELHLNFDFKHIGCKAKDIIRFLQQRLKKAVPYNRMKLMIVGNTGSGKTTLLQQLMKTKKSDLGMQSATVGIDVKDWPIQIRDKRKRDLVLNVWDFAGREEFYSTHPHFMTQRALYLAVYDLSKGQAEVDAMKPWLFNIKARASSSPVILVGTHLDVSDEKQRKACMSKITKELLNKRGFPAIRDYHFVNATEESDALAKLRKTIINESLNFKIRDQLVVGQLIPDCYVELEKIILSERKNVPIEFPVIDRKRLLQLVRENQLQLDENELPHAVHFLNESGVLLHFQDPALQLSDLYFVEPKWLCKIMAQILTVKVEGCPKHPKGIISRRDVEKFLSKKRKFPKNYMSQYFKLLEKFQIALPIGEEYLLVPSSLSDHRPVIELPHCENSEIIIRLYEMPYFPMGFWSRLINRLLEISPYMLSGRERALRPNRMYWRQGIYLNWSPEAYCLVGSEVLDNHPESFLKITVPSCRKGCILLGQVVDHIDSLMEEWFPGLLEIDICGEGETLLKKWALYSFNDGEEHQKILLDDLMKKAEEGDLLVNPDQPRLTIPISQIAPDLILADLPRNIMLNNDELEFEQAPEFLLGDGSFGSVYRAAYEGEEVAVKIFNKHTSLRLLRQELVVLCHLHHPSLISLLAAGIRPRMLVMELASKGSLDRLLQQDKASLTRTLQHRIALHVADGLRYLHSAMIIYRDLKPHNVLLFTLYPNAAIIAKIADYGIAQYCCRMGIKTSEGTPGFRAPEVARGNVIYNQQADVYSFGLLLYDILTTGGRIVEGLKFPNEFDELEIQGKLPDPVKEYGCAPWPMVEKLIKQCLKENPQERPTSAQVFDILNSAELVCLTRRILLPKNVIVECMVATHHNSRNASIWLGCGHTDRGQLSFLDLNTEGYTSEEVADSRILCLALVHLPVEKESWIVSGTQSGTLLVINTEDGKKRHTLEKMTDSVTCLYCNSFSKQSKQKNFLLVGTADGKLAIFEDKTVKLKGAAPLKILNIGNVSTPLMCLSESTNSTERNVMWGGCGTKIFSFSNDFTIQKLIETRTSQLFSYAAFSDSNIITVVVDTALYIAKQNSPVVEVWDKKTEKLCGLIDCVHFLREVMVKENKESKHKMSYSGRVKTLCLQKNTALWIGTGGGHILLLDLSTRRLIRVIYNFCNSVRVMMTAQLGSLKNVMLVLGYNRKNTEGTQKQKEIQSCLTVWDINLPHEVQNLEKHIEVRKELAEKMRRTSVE
# Chain of UniProt Q86Z02 (whole entry, looked up): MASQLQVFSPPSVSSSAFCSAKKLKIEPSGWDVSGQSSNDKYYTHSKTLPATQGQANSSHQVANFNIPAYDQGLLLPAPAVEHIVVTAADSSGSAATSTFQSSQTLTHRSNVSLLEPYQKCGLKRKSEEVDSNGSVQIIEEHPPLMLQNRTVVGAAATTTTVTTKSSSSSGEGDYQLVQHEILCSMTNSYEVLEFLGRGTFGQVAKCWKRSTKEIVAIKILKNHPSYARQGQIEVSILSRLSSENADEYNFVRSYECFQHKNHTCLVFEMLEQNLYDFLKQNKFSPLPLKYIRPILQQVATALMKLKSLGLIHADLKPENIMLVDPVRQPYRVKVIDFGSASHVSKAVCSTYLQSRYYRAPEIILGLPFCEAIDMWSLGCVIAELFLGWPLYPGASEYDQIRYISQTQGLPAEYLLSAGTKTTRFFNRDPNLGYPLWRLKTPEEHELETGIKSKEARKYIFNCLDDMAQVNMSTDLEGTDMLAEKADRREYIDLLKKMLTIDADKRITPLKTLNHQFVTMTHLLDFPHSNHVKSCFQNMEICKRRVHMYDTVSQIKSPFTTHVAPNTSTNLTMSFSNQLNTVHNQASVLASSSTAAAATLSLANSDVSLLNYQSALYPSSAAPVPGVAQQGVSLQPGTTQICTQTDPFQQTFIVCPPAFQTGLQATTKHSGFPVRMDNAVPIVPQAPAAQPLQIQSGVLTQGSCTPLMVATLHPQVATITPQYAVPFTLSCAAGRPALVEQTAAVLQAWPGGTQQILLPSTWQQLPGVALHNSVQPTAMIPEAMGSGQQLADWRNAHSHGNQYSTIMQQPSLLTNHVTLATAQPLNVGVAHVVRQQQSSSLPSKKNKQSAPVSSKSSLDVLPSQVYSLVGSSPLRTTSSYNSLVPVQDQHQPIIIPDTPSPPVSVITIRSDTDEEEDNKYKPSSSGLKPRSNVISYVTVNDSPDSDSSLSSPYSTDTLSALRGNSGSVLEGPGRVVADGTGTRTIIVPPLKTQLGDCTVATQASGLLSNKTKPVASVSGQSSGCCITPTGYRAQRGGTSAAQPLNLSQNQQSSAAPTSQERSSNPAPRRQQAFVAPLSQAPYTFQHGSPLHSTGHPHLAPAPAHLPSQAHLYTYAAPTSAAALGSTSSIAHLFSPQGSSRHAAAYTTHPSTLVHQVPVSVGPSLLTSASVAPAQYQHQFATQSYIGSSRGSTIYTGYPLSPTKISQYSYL
# Chain of UniProt P53667 (whole entry, looked up): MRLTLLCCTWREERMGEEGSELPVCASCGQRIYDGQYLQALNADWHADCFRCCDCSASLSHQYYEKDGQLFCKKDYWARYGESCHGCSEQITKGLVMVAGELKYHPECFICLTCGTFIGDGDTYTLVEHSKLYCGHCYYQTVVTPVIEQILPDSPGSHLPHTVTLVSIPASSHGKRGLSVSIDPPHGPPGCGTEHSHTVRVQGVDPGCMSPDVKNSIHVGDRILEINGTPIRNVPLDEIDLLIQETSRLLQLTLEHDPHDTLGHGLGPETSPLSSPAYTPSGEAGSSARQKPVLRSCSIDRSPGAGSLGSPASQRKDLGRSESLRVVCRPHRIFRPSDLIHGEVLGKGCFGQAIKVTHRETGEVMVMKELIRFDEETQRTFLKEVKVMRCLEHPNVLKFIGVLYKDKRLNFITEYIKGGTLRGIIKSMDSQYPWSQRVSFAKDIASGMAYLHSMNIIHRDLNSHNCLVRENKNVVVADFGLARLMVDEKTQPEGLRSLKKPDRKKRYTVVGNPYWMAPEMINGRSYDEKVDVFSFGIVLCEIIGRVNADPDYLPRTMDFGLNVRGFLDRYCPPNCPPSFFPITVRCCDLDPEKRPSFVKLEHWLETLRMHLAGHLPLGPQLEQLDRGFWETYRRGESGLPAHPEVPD

# Study 1 — cell line: HaCaT; tested at: 100 µM; time: 36 h
SMILES,viability
CCCCOc1ccc(C(=O)CCN2CCCCC2)cc1,26.9%
COc1cc(C=O)ccc1O,64.9%
COCCOC(=O)C1=C(C)NC(C)=C(C(=O)OC(C)C)C1c1cccc([N+](=O)[O-])c1 (stereo not shown),6.26%
CCNC(=O)[C@@H]1CCCN1C(=O)[C@H](CCCNC(=N)N)NC(=O)[C@H](CC(C)C)NC(=O)[C@@H](C)NC(=O)[C@H](Cc1ccc(O)cc1)NC(=O)[C@H](CO)NC(=O)[C@H](Cc1c[nH]c2ccccc12)NC(=O)[C@H](Cc1c[nH]cn1)NC(=O)[C@@H]1CCC(=O)N1,82.8%
CC1(C)O[C@@H]2C[C@H]3[C@@H]4CCC5=CC(=O)C=C[C@]5(C)[C@@]4(F)[C@@H](O)C[C@]3(C)[C@]2(C(=O)CO)O1,92.3%
CN[C@@H]1[C@@H](O[C@H]2O[C@H](CO)[C@@H](N)[C@H](O)[C@H]2O)O[C@H]2C[C@@H](N)[C@@H](O[C@H]3[C@H](O)[C@@H](O)[C@H](N)C[C@@H]3N)O[C@@H]2[C@@H]1O,96.9%
C=CCOC(Cn1ccnc1)c1ccc(Cl)cc1Cl (stereo not shown),78.4%
O=C(c1ccc(OCCN2CCCCC2)cc1)c1c(-c2ccc(O)cc2)sc2cc(O)ccc12,7.06%
C#C[C@]1(OC(C)=O)CC[C@H]2[C@@H]3CCC4=C[C@@H](OC(C)=O)CC[C@@H]4[C@H]3CC[C@@]21C,8.1%
Nc1nc2c(c(=O)[nH]1)N(C=O)C(CNc1ccc(C(=O)N[C@@H](CCC(=O)O)C(=O)O)cc1)CN2 (stereo partly shown),90.5%
Nc1ncnc2c1ncn2[C@@H]1O[C@H](COP(=O)(O)O)[C@@H](O)[C@H]1O,92.3%
CCN(CC)C(=O)/C(C#N)=C/c1cc(O)c(O)c([N+](=O)[O-])c1,45.6%
NNc1nncc2ccccc12,60.4%
C[C@H](N)[C@H](O)c1cccc(O)c1,74.9%

# Study 2 — tested at: 1 µM
# SMILES: C[C@@H](c1cccc(C#N)c1)n1cc(Cl)cc(C(N)=O)c1=N
target,read-out,technique,remaining binding [%]
"PIK3CA (Homo sapiens, UniProt P42336, C420R)",cell-free assay,competition with immobilised ligand,100
"Receptor-type tyrosine-protein kinase FLT3, autoinhibited (FLT3, Homo sapiens, UniProt P36888)",cell-free assay,competition with immobilised ligand,92
"DCLK1 (Homo sapiens, UniProt O15075)",cell-free assay,competition with immobilised ligand,98
"Ribosomal protein S6 kinase alpha-4, N-terminal kinase domain (RPS6KA4, Homo sapiens, UniProt O75676)",cell-free assay,competition with immobilised ligand,100
"CLK1 (Homo sapiens, UniProt P49759)",cell-free assay,competition with immobilised ligand,100
"Tyrosine-protein kinase JAK2, JH1 (JAK2, Homo sapiens, UniProt O60674)",cell-free assay,competition with immobilised ligand,100
"PNCK (Homo sapiens, UniProt Q6P2M8)",cell-free assay,competition with immobilised ligand,88
"AAK1 (Homo sapiens, UniProt Q2M2I8)",binding,,100
"LRRK2 (Homo sapiens, UniProt Q5S007)",cell-free assay,competition with immobilised ligand,100
"DYRK1A (Homo sapiens, UniProt Q13627)",cell-free assay,competition with immobilised ligand,75
"TNNI3K (Homo sapiens, UniProt Q59H18)",cell-free assay,competition with immobilised ligand,100
"STK4 (Homo sapiens, UniProt Q13043)",cell-free assay,competition with immobilised ligand,100
"LYN (Homo sapiens, UniProt P07948)",cell-free assay,competition with immobilised ligand,80

# Study 3 — Compound: c1ccc2c(-c3ccncc3)c[nH]c2c1; read-out: enzyme activity; action: inhibitor; tested at: 0.5 µM; reference: control
target,remaining activity
"PRKX (Homo sapiens, UniProt P51817)",54.3%
"TAOK3 (Homo sapiens, UniProt Q9H2K8)",103%
"HIPK1 (Homo sapiens, UniProt Q86Z02)",97.4%
"FLT4 (Homo sapiens, UniProt P35916)",119%
"SRC (Homo sapiens, UniProt P12931)",100%
"NLK (Homo sapiens, UniProt Q9UBE8)",95.1%
"PASK (Homo sapiens, UniProt Q96RG2)",101%
"FER (Homo sapiens, UniProt P16591)",91.6%
"CDC42BPA (Homo sapiens, UniProt Q5VT25)",99.9%
"FYN (Homo sapiens, UniProt P06241)",98.7%
"PKN1 (Homo sapiens, UniProt Q16512)",66.4%
"ALK (Homo sapiens, UniProt Q9UM73)",106%
"MATK (Homo sapiens, UniProt P42679)",93.9%
"Insulin receptor (INSR, Homo sapiens, UniProt P06213)",90.5%
"AKT1 (Homo sapiens, UniProt P31749)",100%
"LIM domain kinase 1 (LIMK1, Homo sapiens, UniProt P53667)",92%
"NEK11 (Homo sapiens, UniProt Q8NG66)",76.9%
"Cyclin-dependent kinase 3, with cyclin E (CDK3, Homo sapiens, UniProt Q00526)",98.2%
"STK25 (Homo sapiens, UniProt O00506)",117%
"ITK (Homo sapiens, UniProt Q08881)",94.8%
"FGR (Homo sapiens, UniProt P09769)",94.5%
"MARK3 (Homo sapiens, UniProt P27448)",98%

# Study 4 — organism: Plasmodium berghei; cells: Huh-7; strain: liver stage; tested at: 10 µM; time: 24 h; reference: control
Compound,parasite load
CN1[C@@H]2CC[C@H]1C[C@@H](OC(=O)[C@H](CO)c1ccccc1)C2,104%
CC(=O)CC(c1ccccc1)c1c(O)c2ccccc2oc1=O (stereo not shown),105%
CC[C@H]1CN2CCc3cc(OC)c(OC)cc3[C@@H]2C[C@@H]1C[C@H]1NCCc2cc(OC)c(OC)cc21,3.34%
CN(C)CCOC(c1ccccc1)c1ccccc1,88.5%
CCC[C@@H]1C[C@@H](C(=O)N[C@@H]([C@H]2O[C@H](SC)[C@H](O)[C@@H](O)[C@H]2O)[C@H](C)Cl)N(C)C1,108%
CN(C)C(=O)Oc1ccc[n+](C)c1,86.1%
O=C(O)c1cn(C2CC2)c2cc(N3CCNCC3)c(F)cc2c1=O,98.4%
CC(=O)Nc1nnc(S(N)(=O)=O)s1,94.8%
CC[C@@]1([C@H]2O[C@H]([C@H]3O[C@@](O)(CO)[C@H](C)C[C@@H]3C)C[C@H]2C)CC[C@H]([C@@]2(C)CC[C@]3(C[C@H](O)[C@@H](C)[C@@H]([C@H](C)[C@H](OC)[C@@H](C)C(=O)O)O3)O2)O1,0.86%
CC(C)c1c(C(=O)Nc2ccccc2)c(-c2ccccc2)c(-c2ccc(F)cc2)n1CC[C@@H](O)C[C@@H](O)CC(=O)O,89%
Clc1ccc(COC(Cn2ccnc2)c2ccc(Cl)cc2Cl)c(Cl)c1 (stereo not shown),54.6%
COc1ccc(Cc2nccc3cc(OC)c(OC)cc23)cc1OC,33%

# Repeated from above (study 2):
target,read-out,technique,remaining binding [%]
"CLK1 (Homo sapiens, UniProt P49759)",cell-free assay,competition with immobilised ligand,100
"Ribosomal protein S6 kinase alpha-4, N-terminal kinase domain (RPS6KA4, Homo sapiens, UniProt O75676)",cell-free assay,competition with immobilised ligand,100
"STK4 (Homo sapiens, UniProt Q13043)",cell-free assay,competition with immobilised ligand,100
"Tyrosine-protein kinase JAK2, JH1 (JAK2, Homo sapiens, UniProt O60674)",cell-free assay,competition with immobilised ligand,100
"PNCK (Homo sapiens, UniProt Q6P2M8)",cell-free assay,competition with immobilised ligand,88
